Published values pooled from the literature.
Parts stem from different laboratories: compare values within a part only. Changes are numbered by the printed parent chain.

Series 1
Target: UBE2Z UBC core domain (UniProt Q9H832)
Chain of UniProt Q9H832 (whole entry, looked up): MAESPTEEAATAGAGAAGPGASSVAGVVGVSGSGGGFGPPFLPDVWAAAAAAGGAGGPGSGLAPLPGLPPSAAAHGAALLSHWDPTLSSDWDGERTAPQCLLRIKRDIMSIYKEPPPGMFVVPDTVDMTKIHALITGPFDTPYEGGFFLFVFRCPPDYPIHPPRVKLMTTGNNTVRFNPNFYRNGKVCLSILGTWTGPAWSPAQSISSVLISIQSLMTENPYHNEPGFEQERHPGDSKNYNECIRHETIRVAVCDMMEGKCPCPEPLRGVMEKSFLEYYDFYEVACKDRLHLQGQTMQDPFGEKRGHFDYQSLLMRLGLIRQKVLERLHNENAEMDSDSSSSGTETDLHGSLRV
Method: yeast two-hybrid
Sample: yeast
Setting: mostly zero background
Reference: not given
Reading: higher = stronger interaction
Endpoint: lacZ reporter activity
B1: SYTL4 RING domain (UniProt Q96C24); chain RGSQHYSDRTCARCQESLGRLSPKTNTCRGCNHLVCRDCRIQESNGTWRCKVCAKEIELKKAT
B2: RBCK1 RING domain (UniProt Q9BYM8); chain SLVLNTEPAECPVCYSVLAPGEAVVLRECLHTFCRECLQGTIRNSQEAEVSCPFIDNTYSCSGKLLEREIK
B3: RNF19A RING domain (UniProt Q9NV58); chain ISKQIGDFIECPLCLLRHSKDRFPDIMTCHHRSCVDCLRQYLRIEISESRVNISCPECTERFNPHDIR
B4: UBOX5 RING domain (UniProt O94941); chain EQPGSILGPECASCKRVFSPYFKKEPVYQLPCGHLLCRPCLGEKQRSLPMTCTACQRPVASQDVLR
B5: MAP3K1 RING domain (UniProt Q13233); chain NSIKDEEEQMCPICLLGMLDEESLTVCEDGCRNKLHHHCMSIWAEECRRNREPLICPLCRSKWRSHDFYS
Molecule = GSDDEEIPFKCFICRQSFQNPVVTKCRHYFCESCALQHFRTTPRCYVCDQQTNGVFNPA (RNF113A RING domain (UniProt O15541)); value = 0
Molecule = B1 (SYTL4 RING domain); value = 0
Molecule = B2 (RBCK1 RING domain); value = 0
Molecule = B3 (RNF19A RING domain); value = 0
Molecule = FDGDVDPDLKCALCHKVLEDPLTTPCGHVFCAGCVLPWVVQEGSCPARCRGRLSAKELN (PDZRN3 RING domain (UniProt Q9UPQ7)); value = 0
Molecule = GSRLQEINDVCAICYHEFTTSARITPCNHYFHALCLRKWLYIQDTCPMCHQKVYIEDDIK (RNF139 RING domain (UniProt Q8WU17)); value = 3460
Molecule = B4 (UBOX5 RING domain); value = 0
Molecule = PEDRESLKSACVVCLSSFKSCVFLECGHVCSCTECYRALPEPKKCPICRQAITRVIPLY (MUL1 RING domain (UniProt Q969V5)); value = 0
Molecule = B5 (MAP3K1 RING domain); value = 0
Molecule = AMYLQENGIDCPKCKFSYALARGGCMHFHCTQCRHQFCSGCYNAFYAKNKC (RNF31 RING domain (UniProt Q96EP0)); value = 0

Series 2
Target: Interferon regulatory factor 3, full length, phosphomimetic (IRF3, Homo sapiens, UniProt Q14653, residues 1-427, S386D/S396D/S398D/S402D/T404D/S405D)
Method: protein-binding microarray
Form: double-stranded DNA, one strand shown
Sample: in vitro
Tested at: 2540 nM top
Setting: 60-bp whole probe
With: salmon DNA 0.4 mg/ml
Reference: random background probes
Reading: higher = stronger binding
Endpoint: fitted relative affinity
All sequences stand within: GCCTAGCAC … GTCTTGATTCGCTTGACGCTGCTG
Target sequence (chain): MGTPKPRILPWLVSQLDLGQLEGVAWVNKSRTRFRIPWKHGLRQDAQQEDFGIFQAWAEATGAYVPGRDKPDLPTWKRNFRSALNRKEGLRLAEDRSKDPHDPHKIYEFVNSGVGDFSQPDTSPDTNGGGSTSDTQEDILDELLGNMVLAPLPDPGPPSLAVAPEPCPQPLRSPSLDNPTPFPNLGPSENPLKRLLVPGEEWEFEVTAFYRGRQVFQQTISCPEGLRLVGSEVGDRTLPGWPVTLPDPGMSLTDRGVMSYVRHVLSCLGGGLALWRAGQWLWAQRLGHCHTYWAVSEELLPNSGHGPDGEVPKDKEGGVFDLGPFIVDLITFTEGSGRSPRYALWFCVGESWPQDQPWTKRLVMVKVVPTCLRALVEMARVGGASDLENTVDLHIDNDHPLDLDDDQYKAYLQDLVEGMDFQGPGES
Sequence = TTCCAATTCTTTTTATGCTTGTGCTAG; value = 2.32 z-score
Sequence = GACGATTTCAGTTCCGAGCCGTGCTAG; value = 2.77 z-score
Sequence = TTAGGTATCCTTATCCTTTGGTGCTAG; value = 5.2 z-score
Sequence = GGCAGCCTCTGCATTCCCTCAGTGCTA; value = -1.26 z-score
Sequence = CTAGTTTTACTTTCTATCTCGTGCTAG; value = 6.34 z-score
Sequence = TTGTTTTTTGGTTTCTGGTTGTGCTAG; value = 2.26 z-score
Sequence = TTAGCTTCCCTTTTCCTTTAGTGCTAG; value = 4.71 z-score
Sequence = TTAGATCTCGGTCTCGATTAGTGCTAG; value = 0.537 z-score
Sequence = TCATCTCTAATTTTGAGACTGTGCTAG; value = 0.994 z-score
Sequence = GACGAAATGGGGACTGGAGACGTGCTA; value = -0.377 z-score
Sequence = GACGATCGCAGTATCGAGACGTGCTAG; value = 0.377 z-score
Sequence = GACGGTCTCCTACTACTGACGTGCTAG; value = 1.56 z-score
Sequence = TTAGAACTGAGTTTCGATTTGTGCTAG; value = 4.44 z-score
Sequence = GACGGACTGGGGACCGGGGACGTGCTA; value = -0.853 z-score
Sequence = TCATGTCTGTGTCACAGAGAGTGCTAG; value = 0.451 z-score
Sequence = GACGGTTCCCTTTTCCTGAAGTGCTAG; value = 6.44 z-score
Sequence = TTTTTTTTTTTTCTGATCCAGTGCTAG; value = 2.07 z-score
Sequence = GTAGGACTGGGGACTGGGTTAGTGCTA; value = -1.29 z-score
Sequence = TAGCTTCCATTTTCTGAACGTGTGCTA; value = 3.13 z-score
Sequence = TTAGATATCAGTATCGGTTAGTGCTAG; value = 2.91 z-score
Sequence = TTGGTTCTCAGCTTGGGGCAGTGCTAG; value = -0.0041 z-score
Sequence = TATGTTCACTATTTAAGAACGTGCTAG; value = 1.39 z-score
Sequence = TTAGATATCGGGTTTCGATTGGTGCTA; value = 1.39 z-score

Series 3
Target: CCNF, cyclin fold, Cln2 fusion (human)
Method: yeast growth competition, sequencing
Sample: yeast
Setting: weak parent motif
Reference: not given
Reading: higher = stronger binding
Endpoint: normalised enrichment score
Starting sequence: DBF4 docking peptide (human); DDIVSKLVFDFVE
Substitution = DDIASKLVFDFVE [V4A]; value = 0.0593
Substitution = DDIVSKLAFDFVE [V8A]; value = -0.751
Substitution = DDIVSKLVFDFVA [E13A]; value = 0.0689
Substitution = DDIVSKLVFAFVE [D10A]; value = -0.112
Substitution = ADIVSKLVFDFVE [D1A]; value = 0.264
Substitution = DDIVSKAVFDFVE [L7A]; value = -0.687

Series 4
Target: Histone acetyltransferase KAT6A, both winged helices, GST fusion (KAT6A, Homo sapiens, UniProt Q92794, residues 1-181)
Method: protein binding microarray
Form: double-stranded DNA, one strand shown
Sample: in vitro
Tested at: not given
Setting: 8-mer, flanks averaged, mean of 2 arrays, mostly near background
Reference: not given
Reading: higher = stronger binding
Endpoint: E-score
Target sequence (chain): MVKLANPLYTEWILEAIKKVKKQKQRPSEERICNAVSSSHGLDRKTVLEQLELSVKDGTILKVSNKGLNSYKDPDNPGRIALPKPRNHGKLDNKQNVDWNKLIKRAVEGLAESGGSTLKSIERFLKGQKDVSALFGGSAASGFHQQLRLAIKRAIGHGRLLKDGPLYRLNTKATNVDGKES
Sequence = GGACTTGA; value = -0.0459
Sequence = ACAATTCA; value = 0.0395
Sequence = CTGTACAA; value = 0.0294
Sequence = CTCTTGCC; value = -0.141
Sequence = CCCGGCCA; value = 0.161
Sequence = ATCTAAAT; value = -0.0432
Sequence = CTGAGTGC; value = -0.0701
Sequence = AACGTCAC; value = -0.0692
Sequence = GCTTCCTA; value = 0.0259
Sequence = GCCTGGCA; value = -0.158
Sequence = GCCTTCGA; value = -0.00624
Sequence = TATCCTCA; value = -0.119
Sequence = ACCCACCC; value = -0.0977
Sequence = GATGGTAA; value = -0.0964
Sequence = CGGCACAG; value = 0.224
Sequence = GCATTCCA; value = -0.0209
Sequence = AATTTCAG; value = -0.0512
Sequence = CTTCTAGA; value = 0.047
Sequence = CATTGCTA; value = -0.213
Sequence = GCCATTAC; value = 0.0513
Sequence = CACTTGCC; value = -0.133
Sequence = AGGAAATA; value = -0.142
Sequence = ACAGCGTC; value = 0.159
Sequence = GGCTGCAC; value = -0.00888
Sequence = GGGGGGTA; value = -0.0665

Series 5
Target: Sal-like protein 4, full length isoform A (SALL4, Homo sapiens, UniProt Q9UJQ4, residues 1-1053)
Chain of UniProt Q9UJQ4 (whole entry, looked up): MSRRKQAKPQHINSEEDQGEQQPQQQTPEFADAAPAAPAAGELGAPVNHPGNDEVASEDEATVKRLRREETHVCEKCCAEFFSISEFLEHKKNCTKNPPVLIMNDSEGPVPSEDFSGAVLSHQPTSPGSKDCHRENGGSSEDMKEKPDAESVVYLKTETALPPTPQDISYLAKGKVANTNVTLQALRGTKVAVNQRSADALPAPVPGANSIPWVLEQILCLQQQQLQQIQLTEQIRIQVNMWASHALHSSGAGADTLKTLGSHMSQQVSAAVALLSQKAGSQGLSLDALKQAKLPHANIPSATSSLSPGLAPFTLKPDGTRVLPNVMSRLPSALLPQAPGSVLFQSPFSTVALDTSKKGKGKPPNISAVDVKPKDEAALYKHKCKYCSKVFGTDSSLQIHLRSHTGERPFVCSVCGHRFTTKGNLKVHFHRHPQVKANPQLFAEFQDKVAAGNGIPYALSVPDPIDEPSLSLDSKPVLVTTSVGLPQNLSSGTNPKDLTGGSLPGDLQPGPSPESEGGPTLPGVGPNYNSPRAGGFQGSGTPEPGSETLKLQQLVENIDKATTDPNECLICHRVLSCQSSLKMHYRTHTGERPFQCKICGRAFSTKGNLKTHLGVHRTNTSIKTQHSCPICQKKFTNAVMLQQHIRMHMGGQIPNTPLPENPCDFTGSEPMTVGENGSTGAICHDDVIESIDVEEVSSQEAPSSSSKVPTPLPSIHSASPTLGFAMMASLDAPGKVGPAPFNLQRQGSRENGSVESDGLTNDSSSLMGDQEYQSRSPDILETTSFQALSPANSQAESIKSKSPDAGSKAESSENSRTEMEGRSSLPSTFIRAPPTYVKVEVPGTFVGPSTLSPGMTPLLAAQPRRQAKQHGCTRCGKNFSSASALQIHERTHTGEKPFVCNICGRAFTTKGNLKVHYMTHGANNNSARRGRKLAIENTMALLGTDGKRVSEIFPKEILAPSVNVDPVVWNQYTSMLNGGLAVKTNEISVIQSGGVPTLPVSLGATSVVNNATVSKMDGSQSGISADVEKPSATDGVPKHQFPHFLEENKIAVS
Method: universal PBM
Form: double-stranded DNA, one strand shown
Sample: in vitro
Tested at: 600 nM
Setting: 8-mer, flanks averaged, mean of replicates
Reading: higher = stronger binding
Endpoint: E-score
Sequence = TCCTAAGA; value = -0.0146
Sequence = AGGAGTGG; value = -0.17
Sequence = CCTGCAAG; value = -0.23
Sequence = ATGCCCTA; value = -0.0143
Sequence = GGCGCCAA; value = -0.167
Sequence = CGTTATTA; value = 0.363
Sequence = TTCAAAAA; value = 0.268
Sequence = ATAGAATC; value = 0.233
Sequence = CATGCCAC; value = -0.0962
Sequence = CAGAAGGG; value = -0.152
Sequence = GGAAATTA; value = 0.311
Sequence = GCCAATAA; value = 0.236
Sequence = AGCGAATA; value = 0.177
Sequence = GAATGAAA; value = 0.169
Sequence = ATTCACGA; value = 0.245
Sequence = AGACACGC; value = -0.237
Sequence = CCCTTGAG; value = -0.155
Sequence = AGTACGTG; value = -0.115
Sequence = AAGCAATC; value = 0.146

Series 6
Target: ABI1, truncated, D143A, DHFR fusion (Arabidopsis thaliana)
Method: DHFR PCA, deep sequencing
Sample: yeast
Setting: methotrexate growth selection, single substitutions
With: (+)-ABA 17 µM
Reference: wild-type fitted maximum
Reading: higher = stronger binding
Endpoint: relative binding score
Starting sequence: PYL1, truncated, DHFR fusion (Arabidopsis thaliana); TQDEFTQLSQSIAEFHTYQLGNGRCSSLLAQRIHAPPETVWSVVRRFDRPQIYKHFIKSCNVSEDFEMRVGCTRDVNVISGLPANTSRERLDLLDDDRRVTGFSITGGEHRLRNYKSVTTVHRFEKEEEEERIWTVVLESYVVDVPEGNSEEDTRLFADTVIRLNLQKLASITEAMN
Substitution = T106H; value = 57.9%
Substitution = Y141F; value = 40.9%
Substitution = E152I; value = 66.2%
Substitution = N22M; value = 82.6%
Substitution = S27R; value = 43.6%
Substitution = V136F; value = 70.5%
Substitution = Q167V; value = 65.8%
Substitution = H110R; value = 13.8%
Substitution = D97M; value = 80.1%
Substitution = D96H; value = 17%

Excerpt of the above (series 4):
Sequence = AACGTCAC; value = -0.0692
Sequence = CTTCTAGA; value = 0.047
Sequence = CGGCACAG; value = 0.224
Sequence = CTGTACAA; value = 0.0294
Sequence = CATTGCTA; value = -0.213
Sequence = GATGGTAA; value = -0.0964
Sequence = ACAATTCA; value = 0.0395
Sequence = ACAGCGTC; value = 0.159
Sequence = GCCATTAC; value = 0.0513
Sequence = CTGAGTGC; value = -0.0701
Sequence = AGGAAATA; value = -0.142
Sequence = GGACTTGA; value = -0.0459
Sequence = GCTTCCTA; value = 0.0259
